Measured values of several laboratories.
Target: Coagulation factor X (F10, Homo sapiens, UniProt P00742)
Chain of UniProt P00742 (whole entry, looked up): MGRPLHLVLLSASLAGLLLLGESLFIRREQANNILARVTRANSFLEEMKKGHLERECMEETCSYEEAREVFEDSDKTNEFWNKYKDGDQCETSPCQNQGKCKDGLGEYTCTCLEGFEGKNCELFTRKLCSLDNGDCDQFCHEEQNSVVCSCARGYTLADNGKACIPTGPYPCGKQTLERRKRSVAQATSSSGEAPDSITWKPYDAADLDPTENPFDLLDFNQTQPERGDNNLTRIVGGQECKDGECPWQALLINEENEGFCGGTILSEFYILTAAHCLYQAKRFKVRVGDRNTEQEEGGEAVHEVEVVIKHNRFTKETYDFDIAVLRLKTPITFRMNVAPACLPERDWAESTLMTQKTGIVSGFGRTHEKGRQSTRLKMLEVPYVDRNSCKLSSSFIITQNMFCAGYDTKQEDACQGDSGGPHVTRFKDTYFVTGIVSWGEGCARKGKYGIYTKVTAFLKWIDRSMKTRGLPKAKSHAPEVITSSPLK
Observed: enzyme activity
Action: inhibitor

The IC50 of `O=C1CC(c2ccc(O)cc2)Oc2cc(O)cc(OC3OC(CO)C(O)C(O)C3O)c21` (stereo not shown) is reported as 12500 nM (absorbance).
For `CC(C)CCC[C@@H](C)[C@H]1CC[C@H]2[C@@H]3CC=C4C[C@@H](OS(=O)(=O)O)CC[C@]4(C)[C@H]3CC[C@]12C`, the IC50 was 249000 nM (absorbance; pH 7.4).
`CNC(=O)N(C)c1ccc(C(=O)Nc2ccc(OC)cc2C(=O)Nc2ccc(Cl)cn2)cc1` gave an IC50 of 0.25 nM (absorbance).
For `Cc1ccc(O)c2c3c(nn12)CCC(C)(NC(=O)c1ccc(-n2cnc4cc(C(=O)O)ccc42)cc1Cl)C3` (stereo not shown), the Ki was 489 nM.
The IC50 of `Cc1ccc(C(=O)Nc2ccc(CP(=O)(O)O)cc2CP(=O)(O)O)cc1NC(=O)c1cccc(NC(=O)Nc2cccc(C(=O)Nc3cc(C(=O)Nc4ccc(CP(=O)(O)O)cc4CP(=O)(O)O)ccc3C)c2)c1` is reported as > 100000 nM (absorbance).
For `COc1ccc(NC(=O)c2ccc(N(C)C(C)=N)cc2)c(C(=O)Nc2ccc(Cl)cn2)c1`, the IC50 was 1 nM (absorbance).
The IC50 of `CN(C)C(=O)[C@H]1CC[C@H](NC(=O)C(=O)Nc2ccc(Cl)cn2)[C@H](NC(=O)c2nc3c(s2)CNCC3)C1` is reported as 6.9 nM.
With `CNC(=O)N(C)c1ccc(C(=O)Nc2ccc(C)cc2C(=O)Nc2ccc(Cl)cn2)c(F)c1` the IC50 was 0.25 nM (absorbance).
The IC50 of `CNC(=O)C1CCC(NC(=O)C(=O)Nc2ccc(Cl)cn2)C(NC(=O)c2nc3c(s2)CN(C)CC3)C1` (stereo not shown) is reported as 2.7 nM.
The IC50 of `Cc1cc(-c2ccc(/N=N/c3ccc4c(S(=O)(=O)O)cc(S(=O)(=O)O)c(N)c4c3O)c(C)c2)ccc1/N=N/c1ccc2c(S(=O)(=O)O)cc(S(=O)(=O)O)c(N)c2c1O` is reported as ~13000 nM (absorbance; pH 7.4).

Repeated from above:
The IC50 of `Cc1cc(-c2ccc(/N=N/c3ccc4c(S(=O)(=O)O)cc(S(=O)(=O)O)c(N)c4c3O)c(C)c2)ccc1/N=N/c1ccc2c(S(=O)(=O)O)cc(S(=O)(=O)O)c(N)c2c1O` is reported as ~13000 nM (absorbance; pH 7.4).
The IC50 of `CNC(=O)C1CCC(NC(=O)C(=O)Nc2ccc(Cl)cn2)C(NC(=O)c2nc3c(s2)CN(C)CC3)C1` (stereo not shown) is reported as 2.7 nM.
